{"data": "Experimental data from different studies", "cell line": "HeLa", "note": "Lines come from different studies, so protocols differ."}
{"Compound": "C/C1=C\\CC[C@H](C)OC(=O)C[C@H](c2ccc(O)cc2)NC(=O)[C@@H](Cc2ccc(O)c(I)c2)N(C)C(=O)[C@H](C)NC(=O)[C@@H](C)C1", "test": "cell growth or viability", "CC50": "0.1 µg/mL"}
{"Compound": "O=C(NCc1ccccn1)c1cc(-c2ccccc2)n(-c2ccccc2)n1", "test": "cell growth or viability", "CC50": "> 50 µM"}
{"Compound": "Cc1cc(-c2cc(=O)c3c(O)cc(O)c([C@H]4CCN(C)C[C@H]4O)c3o2)no1", "CC50": "0.645 µM"}
{"Compound": "C/C1=C\\[C@H](C)C[C@H](C)OC(=O)C[C@H](c2ccc(O)cc2)NC(=O)[C@@H](Cc2ccc(O)c(I)c2)N(C)C(=O)[C@H](C)NC(=O)[C@@H](C)C1", "test": "cell growth or viability", "CC50": "0.3 µg/mL"}
{"Compound": "Cc1ccc(S(=O)(=O)n2cc3c4c2C(=O)C(NCCc2ccc(O)cc2)=CC4=NCC3)cc1", "test": "cell growth or viability, MTT", "setting": "72 h", "CC50": "0.78 µM"}
{"Compound": "O=C(Nc1cccc(CN2CCc3nc[nH]c3C2)c1)c1cc(-c2ccccc2)n(-c2ccccc2)n1", "test": "cell growth or viability", "CC50": "32 µM"}
{"Compound": "O=C1C(NCCc2ccc(O)cc2)=CC2=NCCc3c(Br)[nH]c1c32", "test": "cell growth or viability, MTT", "setting": "72 h", "CC50": "5 µM"}
{"Compound": "O=C(Oc1cc(OC(=O)c2cc(O)c(O)c(O)c2)c2ccccc2c1)c1cc(O)c(O)c(O)c1", "test": "cell growth or viability, MTT", "setting": "48 h", "CC50": "32.6 µM"}
{"Compound": "O=C(Nc1ccc(N2CCOCC2)cc1)c1cc(-c2ccccc2)n(-c2ccccc2)n1", "test": "cell growth or viability", "CC50": "> 50 µM"}
{"Compound": "O=C1C(=O)c2[nH]cc3c2C(=C1I)NCC3", "test": "cell growth or viability, MTT", "setting": "72 h", "CC50": "20 µM"}
{"note": "For quick reference, copied from above:"}
{"Compound": "O=C(NCc1ccccn1)c1cc(-c2ccccc2)n(-c2ccccc2)n1", "test": "cell growth or viability", "CC50": "> 50 µM"}
